Results collected from several papers.
Each line is one published result; not all experiments were run side by side. Numbers after ± are the reported error.
ABL2 SH2 domain: Tyrosine-protein kinase ABL2, SH2 domain (ABL2, Homo sapiens, UniProt P42684)
Chain of UniProt P42684 (whole entry, looked up): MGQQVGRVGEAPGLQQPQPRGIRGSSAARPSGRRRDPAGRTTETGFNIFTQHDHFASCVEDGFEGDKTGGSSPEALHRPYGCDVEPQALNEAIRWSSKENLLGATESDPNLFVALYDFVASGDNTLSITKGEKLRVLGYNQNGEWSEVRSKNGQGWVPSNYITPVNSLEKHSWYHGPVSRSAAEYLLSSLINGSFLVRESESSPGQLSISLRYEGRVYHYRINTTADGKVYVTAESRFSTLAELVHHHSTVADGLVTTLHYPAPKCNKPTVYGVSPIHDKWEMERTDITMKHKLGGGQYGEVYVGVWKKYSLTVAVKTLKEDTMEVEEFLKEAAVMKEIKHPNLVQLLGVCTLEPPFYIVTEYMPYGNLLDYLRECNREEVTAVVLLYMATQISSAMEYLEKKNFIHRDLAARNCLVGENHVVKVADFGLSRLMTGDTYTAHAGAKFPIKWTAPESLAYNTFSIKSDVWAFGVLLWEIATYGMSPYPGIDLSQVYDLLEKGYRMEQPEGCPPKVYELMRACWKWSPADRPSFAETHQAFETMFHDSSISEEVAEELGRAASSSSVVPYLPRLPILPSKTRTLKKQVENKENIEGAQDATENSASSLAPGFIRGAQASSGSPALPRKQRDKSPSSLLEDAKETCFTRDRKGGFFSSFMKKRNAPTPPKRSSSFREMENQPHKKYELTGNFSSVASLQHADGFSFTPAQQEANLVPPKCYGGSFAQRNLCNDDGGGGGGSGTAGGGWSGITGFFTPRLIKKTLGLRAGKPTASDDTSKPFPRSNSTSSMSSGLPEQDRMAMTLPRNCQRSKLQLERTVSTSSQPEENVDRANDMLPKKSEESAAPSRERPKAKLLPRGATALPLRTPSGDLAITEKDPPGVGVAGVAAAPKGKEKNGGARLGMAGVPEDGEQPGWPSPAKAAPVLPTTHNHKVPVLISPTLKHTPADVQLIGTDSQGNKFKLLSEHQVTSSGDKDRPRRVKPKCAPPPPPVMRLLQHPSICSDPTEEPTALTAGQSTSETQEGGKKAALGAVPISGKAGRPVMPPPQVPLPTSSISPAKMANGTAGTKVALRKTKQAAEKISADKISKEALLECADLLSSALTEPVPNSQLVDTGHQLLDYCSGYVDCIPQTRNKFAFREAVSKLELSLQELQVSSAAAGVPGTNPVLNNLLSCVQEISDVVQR
Chain of UniProt Q9Y2K6 (whole entry, looked up): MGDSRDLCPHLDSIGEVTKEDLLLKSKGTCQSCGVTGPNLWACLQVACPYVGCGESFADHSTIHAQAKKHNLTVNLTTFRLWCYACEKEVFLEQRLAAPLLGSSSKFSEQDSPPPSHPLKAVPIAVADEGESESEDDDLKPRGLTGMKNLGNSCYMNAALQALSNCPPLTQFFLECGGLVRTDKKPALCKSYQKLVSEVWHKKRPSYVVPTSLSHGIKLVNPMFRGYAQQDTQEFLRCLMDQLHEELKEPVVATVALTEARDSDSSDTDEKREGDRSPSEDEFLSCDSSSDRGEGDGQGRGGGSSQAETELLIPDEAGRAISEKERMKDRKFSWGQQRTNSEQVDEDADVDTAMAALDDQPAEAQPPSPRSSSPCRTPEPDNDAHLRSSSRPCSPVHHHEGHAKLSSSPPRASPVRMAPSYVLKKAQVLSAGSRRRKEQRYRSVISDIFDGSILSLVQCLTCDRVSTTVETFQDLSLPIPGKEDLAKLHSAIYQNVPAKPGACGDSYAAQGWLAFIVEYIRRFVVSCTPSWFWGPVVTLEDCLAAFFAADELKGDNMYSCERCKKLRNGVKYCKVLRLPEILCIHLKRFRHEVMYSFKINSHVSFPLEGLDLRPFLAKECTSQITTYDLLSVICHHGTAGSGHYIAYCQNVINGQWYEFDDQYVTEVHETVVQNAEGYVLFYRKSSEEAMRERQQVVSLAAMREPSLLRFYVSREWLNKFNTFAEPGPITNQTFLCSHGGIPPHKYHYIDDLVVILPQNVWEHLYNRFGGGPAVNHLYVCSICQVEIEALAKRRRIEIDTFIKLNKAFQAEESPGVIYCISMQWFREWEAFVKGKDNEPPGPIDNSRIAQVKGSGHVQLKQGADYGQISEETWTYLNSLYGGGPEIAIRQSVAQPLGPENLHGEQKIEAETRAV
Chain of UniProt P02454 (whole entry, looked up): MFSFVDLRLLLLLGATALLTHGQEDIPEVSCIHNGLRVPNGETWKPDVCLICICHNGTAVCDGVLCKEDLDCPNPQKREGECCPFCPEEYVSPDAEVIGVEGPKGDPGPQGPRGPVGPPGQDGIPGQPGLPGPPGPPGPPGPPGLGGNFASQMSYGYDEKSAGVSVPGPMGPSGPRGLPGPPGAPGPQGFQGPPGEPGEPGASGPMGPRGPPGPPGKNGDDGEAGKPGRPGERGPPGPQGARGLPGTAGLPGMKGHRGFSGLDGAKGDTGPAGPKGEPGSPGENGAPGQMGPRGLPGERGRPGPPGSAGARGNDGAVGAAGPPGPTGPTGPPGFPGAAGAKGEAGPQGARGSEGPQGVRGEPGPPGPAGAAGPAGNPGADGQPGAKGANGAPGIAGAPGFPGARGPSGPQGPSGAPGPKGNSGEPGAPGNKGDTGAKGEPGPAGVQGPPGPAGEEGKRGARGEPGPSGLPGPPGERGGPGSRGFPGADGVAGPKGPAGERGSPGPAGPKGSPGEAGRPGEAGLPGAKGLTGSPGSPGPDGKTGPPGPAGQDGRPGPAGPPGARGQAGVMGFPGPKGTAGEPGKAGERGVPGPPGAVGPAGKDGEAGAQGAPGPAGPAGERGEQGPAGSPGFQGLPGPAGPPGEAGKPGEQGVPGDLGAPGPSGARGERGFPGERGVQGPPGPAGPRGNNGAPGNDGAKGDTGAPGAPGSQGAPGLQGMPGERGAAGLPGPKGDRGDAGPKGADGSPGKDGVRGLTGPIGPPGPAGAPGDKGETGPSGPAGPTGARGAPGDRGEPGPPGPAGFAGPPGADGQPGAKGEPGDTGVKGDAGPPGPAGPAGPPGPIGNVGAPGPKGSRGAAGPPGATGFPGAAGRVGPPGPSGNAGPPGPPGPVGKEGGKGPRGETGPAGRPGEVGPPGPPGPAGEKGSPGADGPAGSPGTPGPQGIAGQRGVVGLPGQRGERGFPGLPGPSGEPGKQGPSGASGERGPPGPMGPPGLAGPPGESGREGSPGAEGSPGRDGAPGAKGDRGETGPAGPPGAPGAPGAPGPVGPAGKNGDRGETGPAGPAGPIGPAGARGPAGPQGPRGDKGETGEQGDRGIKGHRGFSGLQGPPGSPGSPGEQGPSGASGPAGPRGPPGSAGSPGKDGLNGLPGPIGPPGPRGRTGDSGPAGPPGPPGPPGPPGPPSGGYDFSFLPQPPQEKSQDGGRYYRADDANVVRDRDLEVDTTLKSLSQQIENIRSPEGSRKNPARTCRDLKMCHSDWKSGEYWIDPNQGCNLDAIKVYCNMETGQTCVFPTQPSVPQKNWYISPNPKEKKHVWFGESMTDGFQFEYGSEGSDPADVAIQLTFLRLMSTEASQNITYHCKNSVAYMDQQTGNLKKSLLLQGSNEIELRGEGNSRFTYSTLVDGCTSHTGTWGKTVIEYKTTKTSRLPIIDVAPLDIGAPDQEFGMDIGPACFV
Chain of UniProt Q14680 (whole entry, looked up): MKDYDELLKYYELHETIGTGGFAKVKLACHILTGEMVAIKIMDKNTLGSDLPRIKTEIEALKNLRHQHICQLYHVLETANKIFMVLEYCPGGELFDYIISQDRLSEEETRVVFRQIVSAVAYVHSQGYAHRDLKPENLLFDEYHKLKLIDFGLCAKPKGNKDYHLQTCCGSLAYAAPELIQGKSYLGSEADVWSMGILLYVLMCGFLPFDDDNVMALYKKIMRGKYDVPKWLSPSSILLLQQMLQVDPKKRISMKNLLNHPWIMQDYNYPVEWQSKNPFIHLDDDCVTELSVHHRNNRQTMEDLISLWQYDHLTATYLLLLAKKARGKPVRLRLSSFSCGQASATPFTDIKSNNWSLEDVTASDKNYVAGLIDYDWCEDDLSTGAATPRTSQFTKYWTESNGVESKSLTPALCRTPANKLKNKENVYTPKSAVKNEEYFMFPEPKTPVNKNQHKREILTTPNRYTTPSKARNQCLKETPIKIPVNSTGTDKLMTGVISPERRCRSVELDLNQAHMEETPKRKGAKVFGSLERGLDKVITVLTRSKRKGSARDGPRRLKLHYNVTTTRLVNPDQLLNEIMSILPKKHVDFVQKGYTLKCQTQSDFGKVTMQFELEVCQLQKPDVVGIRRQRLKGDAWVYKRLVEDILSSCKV
Chain of UniProt P02786 (whole entry, looked up): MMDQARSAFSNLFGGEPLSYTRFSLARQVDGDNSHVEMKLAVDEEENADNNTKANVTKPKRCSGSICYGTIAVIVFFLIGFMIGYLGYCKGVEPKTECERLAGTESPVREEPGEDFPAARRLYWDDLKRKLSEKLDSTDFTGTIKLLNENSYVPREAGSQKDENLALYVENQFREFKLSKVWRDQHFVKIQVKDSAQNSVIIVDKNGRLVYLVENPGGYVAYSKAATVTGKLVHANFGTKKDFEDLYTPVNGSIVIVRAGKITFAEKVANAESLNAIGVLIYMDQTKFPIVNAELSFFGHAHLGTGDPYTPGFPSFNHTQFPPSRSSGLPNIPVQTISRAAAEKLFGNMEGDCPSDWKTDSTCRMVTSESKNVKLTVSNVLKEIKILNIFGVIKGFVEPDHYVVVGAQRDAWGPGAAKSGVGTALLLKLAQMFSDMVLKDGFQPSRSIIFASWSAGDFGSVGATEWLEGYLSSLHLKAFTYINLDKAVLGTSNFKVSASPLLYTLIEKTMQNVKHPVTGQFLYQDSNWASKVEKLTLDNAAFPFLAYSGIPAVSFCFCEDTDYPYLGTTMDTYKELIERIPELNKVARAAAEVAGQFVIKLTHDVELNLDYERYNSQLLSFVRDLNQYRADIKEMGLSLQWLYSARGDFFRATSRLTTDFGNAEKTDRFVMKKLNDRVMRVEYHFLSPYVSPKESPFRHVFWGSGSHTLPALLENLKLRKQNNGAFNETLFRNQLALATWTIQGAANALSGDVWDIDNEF

| SMILES | target | assay | system | conditions | Kd |
| --- | --- | --- | --- | --- | --- |
| CC(C)C[C@H](NC(=O)CNC(=O)[C@@H](NC(=O)[C@@H](NC(=O)[C@H](CCC(N)=O)NC(=O)[C@H](CCC(N)=O)NC(=O)[C@H](CCCNC(=N)N)NC(=O)[C@H](CCCCN)NC(=O)[C@@H](NC(=O)CNC(=O)[C@H](CCCCN)NC(=O)CNC(=O)[C@H](Cc1c[nH]cn1)NC(=O)[C@H](CC(C)C)NC(=O)[C@H](CC(C)C)NC(=O)[C@H](Cc1c[nH]cn1)NC(=O)[C@H](Cc1c[nH]cn1)NC(=O)[C@H](CC(C)C)NC(=O)[C@H](CC(C)C)NC(=O)[C@H](Cc1c[nH]cn1)NC(=O)[C@H](Cc1c[nH]c2ccccc12)NC(=O)[C@H](CC(C)C)NC(=O)[C@H](CC(C)C)NC(=O)CNC(=O)[C@@H](NC(=O)[C@@H](NC(=O)[C@H](CCC(N)=O)NC(=O)[C@H](CCC(N)=O)NC(=O)[C@H](CCCNC(=N)N)NC(=O)[C@H](CCCCN)NC(=O)[C@@H](N)[C@@H](C)O)C(C)C)C(C)C)[C@@H](C)O)C(C)C)C(C)C)C(=O)N[C@@H](CC(C)C)C(=O)N[C@@H](Cc1c[nH]c2ccccc12)C(=O)N[C@@H](Cc1c[nH]cn1)C(=O)N[C@@H](CC(C)C)C(=O)N[C@@H](CC(C)C)C(=O)N[C@@H](Cc1c[nH]cn1)C(=O)N[C@@H](Cc1c[nH]cn1)C(=O)N[C@@H](CC(C)C)C(=O)N[C@@H](CC(C)C)C(=O)N[C@@H](Cc1c[nH]cn1)C(=O)O | Col1a1/Col1a2 (Rattus norvegicus, UniProt P02454+P02466) | ITC |  | pH 7.4, 25 °C, together with: collagen 10 µM | 0.352 µM |
| Nc1ncnc2c1ncn2[C@@H]1O[C@H](COP(=O)(O)OP(=O)(O)OP(=O)(O)O)[C@@H](O)[C@H]1O | matB (Rhodopseudomonas palustris, UniProt Q6ND88, C106A/K488A/Q457C/R286C) | binding |  | pH 7.5, 100 mM NaCl | 5.6 ± 0.6 µM |
| N=C(N)NCCC[C@H](N)C(=O)O | uncharacterized protein (Pelagibacter ubique, UniProt Q4FLC2) | binding, competition ITC |  |  | 3.5e-05 ± 1.2e-05 µM |
| CC[C@H](C)[C@H](NC(=O)[C@H](Cc1ccc(OP(=O)(O)O)cc1)NC(=O)[C@H](CCC(=O)O)NC(=O)[C@H](Cc1c[nH]cn1)NC(=O)CNC(=O)[C@H](CC(=O)O)NC(=O)[C@H](CO)NC(=O)[C@H](CO)NC(=O)[C@@H](NC(=O)[C@H](CO)NC(=O)[C@H](CCC(=O)O)NC(=O)c1ccc2c(c1)C(=O)OC21c2ccc(N(C)C)cc2Oc2cc(N(C)C)ccc21)C(C)C)C(=O)N[C@@H](Cc1ccc(O)cc1)C(=O)N[C@H](C(=O)N[C@@H](CC(=O)O)C(=O)N1CCC[C@H]1C(=O)N[C@@H](CCSC)C(=O)N[C@@H](CCC(N)=O)C(=O)N[C@@H](CC(=O)O)C(=O)O)C(C)C | ABL2 SH2 domain | binding |  |  | 0.071 µM |
| CN(C)c1ccc(C(=C2C=CC(=[N+](C)C)C=C2)c2ccccc2)cc1 | HTH-type transcriptional regulator QacR (qacR, Staphylococcus aureus, UniProt P0A0N4) | binding, tryptophan fluorescence quenching |  |  | 1.17 µM |
| CSCC[C@H](NC(=O)CNC(=O)[C@H](Cc1ccccc1)NC(=O)[C@H](CC(=O)O)NC(=O)CNC(=O)c1ccc2c(c1)C(=O)OC21c2ccc(N(C)C)cc2Oc2cc(N(C)C)ccc21)C(=O)N[C@@H](CO)C(=O)N[C@@H](CCCNC(=N)N)C(=O)N[C@@H](CC(=O)O)C(=O)N[C@H](C(=O)N[C@@H](Cc1ccc(OP(=O)(O)O)cc1)C(=O)N[C@@H](CO)C(=O)N[C@H](C(=O)N[C@@H](CC(=O)O)C(=O)N[C@@H](Cc1ccc(O)cc1)C(=O)N[C@@H](Cc1ccc(O)cc1)C(=O)N[C@@H](CCCNC(=N)N)C(=O)N[C@H](C(=O)N[C@@H](CC(=O)O)C(=O)O)C(C)C)[C@@H](C)O)C(C)C | Tyrosine-protein kinase Tec, SH2 domain (TEC, Homo sapiens, UniProt P42680) | binding |  |  | 1.1 µM |
| O=C(O)CNC(=O)c1cccnc1 | Ubiquitin carboxyl-terminal hydrolase 20, ZnF-UBD domain (USP20, Homo sapiens, UniProt Q9Y2K6) |  |  |  | > 1000 µM |
| CC[C@H](C)[C@H](NC(=O)[C@H](CNC(=O)CCl)NC(C)=O)C(=O)N[C@@H](C)C(=O)N[C@@H](CCC(N)=O)C(=O)N[C@@H](CCC(=O)O)C(=O)N[C@@H](CC(C)C)C(=O)N[C@@H](CCCNC(=N)N)C(=O)N[C@@]1(C)CCC/C=C\CCC[C@@](C)(C(=O)N[C@@H](Cc2ccccc2)C(=O)N[C@@H](CC(N)=O)C(=O)N[C@@H](C)C(=O)N[C@@H](Cc2ccc(O)cc2)C(=O)N[C@@H](Cc2ccc(O)cc2)C(=O)N[C@@H](C)C(=O)N[C@@H](CCCNC(=N)N)C(=O)N[C@@H](CCCNC(=N)N)C(N)=O)NC(=O)[C@H](CC(=O)O)NC(=O)CNC(=O)[C@H]([C@@H](C)CC)NC1=O | BCL2L1 (Homo sapiens, UniProt Q07817) | isothermal titration calorimetry |  | 25 °C, 10% DMSO | no binding |
| CC(=O)N[C@H]1[C@@H](O[C@H](C)[C@H](NC(C)=O)C(=O)N[C@H](C(=O)N[C@H](C(=O)NCC(=O)O)[C@@H](C)O[C@H]2O[C@H](CO)[C@H](O)[C@H](O)[C@H]2NC(C)=O)[C@@H](C)O[C@H]2O[C@H](CO)[C@H](O)[C@H](O)[C@H]2NC(C)=O)O[C@H](CO)[C@H](O)[C@@H]1O | LE1 (Glycine max, UniProt P05046) | glycan microarray |  | 5 glycans per BSA | 0.03 ± 0.01 µM |
| CC[C@H](CO)Nc1nc(NCc2ccc(-c3ccccn3)cc2)c2ncn(C(C)C)c2n1 | MELK (Homo sapiens, UniProt Q14680) | binding, competition affinity chromatography | SH-SY5Y cell extract |  | 27.7 µM |
| CC[C@@H](C)[C@@H](NC(=O)[C@@H](Cc1ccc(O)cc1)NC(=O)[C@H]1CCCN1C(=O)[C@@H](CCCNC(=N)N)NC(=O)[C@H](N)Cc1c[nH]cn1)C(=O)N[C@H](C)C(=O)N[C@H](Cc1c[nH]cn1)C(=O)N[C@H](CCCNC(=N)N)C(=O)N[C@@H](C(=O)N[C@H](Cc1ccc(O)cc1)C(=O)N[C@H](CO)C(=O)N[C@H](Cc1ccccc1)C(N)=O)C(C)C | TFRC (Homo sapiens, UniProt P02786) | microscale thermophoresis |  | 6 h, OFP-tagged protein | 9.1 ± 3.2 µM |
| CC(=O)N[C@H]1[C@@H](O[C@H]2[C@@H](O)[C@@H](CO)OC(O)[C@@H]2O)O[C@H](CO)[C@H](O)[C@@H]1O (stereo partly drawn) | Vicia villosa lectin | binding |  | 2 h | 0.014 ± 0.004 µM |
| CC[C@H](C)[C@H](NC(=O)[C@H](CC(=O)O)NC(=O)[C@H](C)NC(=O)[C@H](Cc1ccc(OP(=O)(O)O)cc1)NC(=O)[C@H](CCCCN)NC(=O)[C@@H](NC(=O)[C@H](CC(=O)O)NC(=O)CNC(=O)[C@H](CCCCN)NC(=O)[C@H](CCSC)NC(=O)[C@H](CC(=O)O)NC(=O)[C@H](CC(C)C)NC(=O)[C@H](CCSC)NC(=O)c1ccc2c(c1)C(=O)OC21c2ccc(N(C)C)cc2Oc2cc(N(C)C)ccc21)C(C)C)C(=O)N[C@@H](CCC(=O)O)C(=O)N[C@@H](CO)C(=O)N[C@@H](CO)C(=O)N[C@@H](CC(N)=O)C(=O)N[C@@H](CC(=O)O)C(=O)O | Tyrosine-protein kinase ITK/TSK, SH2 domain (ITK, Homo sapiens, UniProt Q08881) | binding |  |  | 1.64 µM |
| Nc1ncnc2c1ncn2[C@@H]1O[C@H](CO)[C@@H](OP(=O)(O)O)[C@H]1O | Thermonuclease, denatured (nuc, Staphylococcus aureus, UniProt P00644) | binding |  | pH 7 | 30000 µM |
| CC[C@H](C)[C@H](NC(=O)[C@H](CCC(N)=O)NC(=O)[C@H](Cc1c[nH]cn1)NC(=O)c1ccc2c(c1)C(=O)OC21c2ccc(N(C)C)cc2Oc2cc(N(C)C)ccc21)C(=O)N[C@@H](CO)C(=O)N[C@@H](CC(C)C)C(=O)N[C@@H](CC(=O)O)C(=O)N[C@@H](CC(N)=O)C(=O)N1CCC[C@H]1C(=O)N[C@@H](CC(=O)O)C(=O)N[C@@H](Cc1ccc(OP(=O)(O)O)cc1)C(=O)N[C@@H](CCC(N)=O)C(=O)N[C@@H](CCC(N)=O)C(=O)N[C@@H](CC(=O)O)C(=O)N[C@@H](Cc1ccccc1)C(=O)N[C@@H](Cc1ccccc1)C(=O)N1CCC[C@H]1C(=O)N[C@@H](CCCCN)C(=O)N[C@@H](CC(=O)O)C(=O)O | Tyrosine-protein kinase SYK, SH2 domains (SYK, Homo sapiens, UniProt P43405) | binding |  |  | 1.28 µM |
| CC(=O)N[C@@H]1[C@@H](O)[C@@H](O)[C@@H](CO)O[C@@H]1O | Helix pomatia agglutinin | glycan microarray |  | 4 glycans per BSA | 0.05 ± 0.017 µM |
| CSCC[C@H](NC(=O)[C@H](CC(=O)O)NC(=O)c1ccc2c(c1)C(=O)OC21c2ccc(N(C)C)cc2Oc2cc(N(C)C)ccc21)C(=O)N[C@@H](CO)C(=O)N[C@@H](CCCCN)C(=O)N[C@@H](CC(=O)O)C(=O)N[C@@H](CCC(=O)O)C(=O)N[C@@H](CO)C(=O)N[C@H](C(=O)N[C@@H](CC(=O)O)C(=O)N[C@@H](Cc1ccc(OP(=O)(O)O)cc1)C(=O)N[C@H](C(=O)N1CCC[C@H]1C(=O)N[C@@H](CCSC)C(=O)N[C@@H](CC(C)C)C(=O)N[C@@H](CC(=O)O)C(=O)N[C@@H](CCSC)C(=O)N[C@@H](CCCCN)C(=O)N[C@@H](CC(=O)O)C(=O)O)C(C)C)C(C)C | ABL2 SH2 domain | binding |  |  | 0.105 µM |
| CCCCCCCCCC(=O)NC1CCCC1 | qscR, DNA-bound dimer (Pseudomonas aeruginosa, UniProt G3XD77) | ligand binding, FRET displacement |  | protein with DNA | 0.0148 µM |

Repeated from above:
| SMILES | target | assay | system | conditions | Kd |
| --- | --- | --- | --- | --- | --- |
| CC[C@H](C)[C@H](NC(=O)[C@H](CNC(=O)CCl)NC(C)=O)C(=O)N[C@@H](C)C(=O)N[C@@H](CCC(N)=O)C(=O)N[C@@H](CCC(=O)O)C(=O)N[C@@H](CC(C)C)C(=O)N[C@@H](CCCNC(=N)N)C(=O)N[C@@]1(C)CCC/C=C\CCC[C@@](C)(C(=O)N[C@@H](Cc2ccccc2)C(=O)N[C@@H](CC(N)=O)C(=O)N[C@@H](C)C(=O)N[C@@H](Cc2ccc(O)cc2)C(=O)N[C@@H](Cc2ccc(O)cc2)C(=O)N[C@@H](C)C(=O)N[C@@H](CCCNC(=N)N)C(=O)N[C@@H](CCCNC(=N)N)C(N)=O)NC(=O)[C@H](CC(=O)O)NC(=O)CNC(=O)[C@H]([C@@H](C)CC)NC1=O | BCL2L1 (Homo sapiens, UniProt Q07817) | isothermal titration calorimetry |  | 25 °C, 10% DMSO | no binding |
| CC(=O)N[C@H]1[C@@H](O[C@H](C)[C@H](NC(C)=O)C(=O)N[C@H](C(=O)N[C@H](C(=O)NCC(=O)O)[C@@H](C)O[C@H]2O[C@H](CO)[C@H](O)[C@H](O)[C@H]2NC(C)=O)[C@@H](C)O[C@H]2O[C@H](CO)[C@H](O)[C@H](O)[C@H]2NC(C)=O)O[C@H](CO)[C@H](O)[C@@H]1O | LE1 (Glycine max, UniProt P05046) | glycan microarray |  | 5 glycans per BSA | 0.03 ± 0.01 µM |
